Experimental data collected from several papers.
Each numbered part is a random draw from the data of one study; scales do not carry over between parts. Positions count from the first letter of the parent shown.

Sample 1 — target: CCNB1, cyclin fold, Cln2 fusion (human); method: yeast growth competition, sequencing; matrix: yeast; notes: strong parent motif; baseline: not given; reading: higher = stronger binding
Parent: PKN2 docking peptide (human); VSAVQKLDFSDTM; partner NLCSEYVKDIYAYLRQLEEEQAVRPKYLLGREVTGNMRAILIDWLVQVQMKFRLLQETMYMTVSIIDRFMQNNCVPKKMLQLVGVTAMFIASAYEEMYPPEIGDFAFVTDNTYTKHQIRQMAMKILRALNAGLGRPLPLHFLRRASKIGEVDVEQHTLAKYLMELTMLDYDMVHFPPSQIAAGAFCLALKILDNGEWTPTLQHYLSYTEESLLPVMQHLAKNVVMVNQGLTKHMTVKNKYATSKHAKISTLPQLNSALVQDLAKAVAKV
Under “normalised enrichment score”, `D11E` is recorded as 1.89.
Under “normalised enrichment score”, `A3N` is recorded as -0.204.
`A3G` — result for “normalised enrichment score”: -0.233.
For `V1C`, “normalised enrichment score” read 2.26.
For `A3P`, “normalised enrichment score” read 1.48.
`S10T`: “normalised enrichment score” 1.95.
`S10P`: “normalised enrichment score” 1.56.
Under “normalised enrichment score”, `L7I` is recorded as 0.121.
`V4R` — result for “normalised enrichment score”: 0.95.
`A3R`: “normalised enrichment score” 0.546.
`D11Y`: “normalised enrichment score” 0.676.
For `D11G`, “normalised enrichment score” read 1.71.
For `M13H`, “normalised enrichment score” read 2.13.
`D8K` — result for “normalised enrichment score”: 1.29.
For `D8Q`, “normalised enrichment score” read 1.07.
For `V4M`, “normalised enrichment score” read 0.728.
For `V1A`, “normalised enrichment score” read 1.76.
`L7D`: “normalised enrichment score” -0.378.
`S2D` — result for “normalised enrichment score”: 1.55.
`M13S` — result for “normalised enrichment score”: 2.31.
Under “normalised enrichment score”, `M13P` is recorded as 1.65.

Sample 2 — method: protein binding microarray; molecule type: double-stranded DNA, one strand shown; matrix: in vitro; concentration: not given; baseline: not given; reading: higher = stronger binding
Target: Histone acetyltransferase KAT6A, both winged helices, GST fusion (KAT6A, Homo sapiens, UniProt Q92794, residues 1-181)
Notes: 8-mer, flanks averaged, mean of 2 arrays, mostly near background
Target sequence (chain): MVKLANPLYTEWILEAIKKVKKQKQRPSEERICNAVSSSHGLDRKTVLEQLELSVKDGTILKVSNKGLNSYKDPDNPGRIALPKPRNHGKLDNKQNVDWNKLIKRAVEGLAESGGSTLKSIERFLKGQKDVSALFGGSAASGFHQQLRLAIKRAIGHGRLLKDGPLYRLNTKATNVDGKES
`TCCGGCAA` gave an E-score of 0.0804.
The E-score of `AACCCGCG` is reported as 0.298.
With `AGAATTCT` the E-score was 0.143.
For `ACTAAGTG`, the E-score was -0.177.
`CCAATGTC` has an E-score of -0.0358.
The E-score of `ATACGCTC` is reported as 0.109.
`GGTCGTCA` has an E-score of 0.0523.
`GAGGCTCC` has an E-score of -0.0379.
The E-score of `CGGACAGA` is reported as 0.178.
For `GGGACCCA`, the E-score was 0.0242.
For `ACCATGAT`, the E-score was -0.136.
The E-score of `AGCTAAAT` is reported as -0.133.
For `ATCAGTCG`, the E-score was 0.0172.
For `TAGAGCGA`, the E-score was -0.0756.
With `CAGTTTCA` the E-score was -0.0811.
For `ATCGGATG`, the E-score was 0.0224.
`ATCACCTC` has an E-score of -0.0159.
With `GGAAGTTA` the E-score was -0.0251.
`ACCATAAG` has an E-score of -0.0917.
The E-score of `GCCAATCC` is reported as 0.000445.
The E-score of `CATTTTAG` is reported as 0.118.
`GTCAGAAC` gave an E-score of 0.048.
For `ACGTTTGC`, the E-score was 0.0424.
`CGGGAAAA` has an E-score of 0.174.
For `CTTGGCTA`, the E-score was -0.235.

Sample 3 — method: universal PBM; molecule type: double-stranded DNA, one strand shown; matrix: in vitro; concentration: 600 nM; reading: higher = stronger binding
Target: Sal-like protein 4, full length isoform A (SALL4, Homo sapiens, UniProt Q9UJQ4, residues 1-1053)
Chain of UniProt Q9UJQ4 (whole entry, looked up): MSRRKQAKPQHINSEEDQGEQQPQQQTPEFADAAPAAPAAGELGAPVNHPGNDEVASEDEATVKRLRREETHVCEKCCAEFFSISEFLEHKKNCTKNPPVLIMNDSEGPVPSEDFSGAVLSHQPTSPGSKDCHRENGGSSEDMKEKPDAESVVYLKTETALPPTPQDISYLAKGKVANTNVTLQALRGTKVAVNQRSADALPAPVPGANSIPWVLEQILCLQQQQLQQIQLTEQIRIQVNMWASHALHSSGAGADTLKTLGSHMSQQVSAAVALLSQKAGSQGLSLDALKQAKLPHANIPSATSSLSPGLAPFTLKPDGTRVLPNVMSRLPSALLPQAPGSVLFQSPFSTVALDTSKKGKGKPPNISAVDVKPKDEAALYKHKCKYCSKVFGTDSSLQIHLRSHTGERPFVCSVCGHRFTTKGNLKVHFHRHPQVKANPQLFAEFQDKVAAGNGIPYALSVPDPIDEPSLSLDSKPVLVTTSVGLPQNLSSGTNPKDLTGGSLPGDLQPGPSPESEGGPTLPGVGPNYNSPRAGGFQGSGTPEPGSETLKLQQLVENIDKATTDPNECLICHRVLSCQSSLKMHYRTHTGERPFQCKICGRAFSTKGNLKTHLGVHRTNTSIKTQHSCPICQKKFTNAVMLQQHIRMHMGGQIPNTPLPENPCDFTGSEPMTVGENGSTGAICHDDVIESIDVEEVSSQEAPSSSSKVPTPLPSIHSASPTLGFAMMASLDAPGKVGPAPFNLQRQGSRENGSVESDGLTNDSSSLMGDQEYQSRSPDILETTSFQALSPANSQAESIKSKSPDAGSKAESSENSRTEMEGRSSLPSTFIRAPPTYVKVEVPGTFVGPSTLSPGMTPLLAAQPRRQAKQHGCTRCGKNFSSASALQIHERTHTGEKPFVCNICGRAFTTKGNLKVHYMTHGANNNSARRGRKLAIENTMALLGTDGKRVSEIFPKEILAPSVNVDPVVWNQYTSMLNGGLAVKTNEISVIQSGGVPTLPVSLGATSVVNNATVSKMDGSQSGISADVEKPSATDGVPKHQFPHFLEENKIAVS
Notes: 8-mer, flanks averaged, mean of replicates
`CAGCTGTC` has an E-score of -0.0812.
For `GATTGACC`, the E-score was -0.0677.
With `CCGTACGA` the E-score was 0.00839.
`CACTTCAC` has an E-score of 0.012.
`GTTCCACA` has an E-score of -0.129.
With `AAGCTTCC` the E-score was 0.0361.
The E-score of `AGAGGAGA` is reported as -0.08.
The E-score of `AATCGACC` is reported as -0.0274.
`ACGGGAGA` gave an E-score of -0.0301.
With `CGTGGCGA` the E-score was -0.239.
With `CCGCAGTA` the E-score was -0.114.
For `CGTTTAAC`, the E-score was 0.194.
With `GTCAACAA` the E-score was 0.0669.
With `AGCTGCGG` the E-score was -0.393.
`CGACAAAA` gave an E-score of 0.177.
For `ATTCAAAT`, the E-score was 0.334.
`CCTTGGCA` gave an E-score of -0.133.
`TTGTACAA` has an E-score of 0.289.
`ACTACACT` has an E-score of 0.129.
`ATTGTTTC` gave an E-score of 0.238.
The E-score of `GCTTTTAA` is reported as 0.0708.
For `TTCCCAAA`, the E-score was 0.219.

Sample 4 — method: RNA Bind-n-Seq; molecule type: RNA; matrix: in vitro; concentration: 100 nM; baseline: input RNA pool; reading: higher = stronger binding
Target: RING finger protein unkempt homolog, zinc fingers 1-6, SBP tag (UNK, Homo sapiens, UniProt Q9C0B0, residues 30-357)
Chain of UniProt Q9C0B0 (30-357, looked up): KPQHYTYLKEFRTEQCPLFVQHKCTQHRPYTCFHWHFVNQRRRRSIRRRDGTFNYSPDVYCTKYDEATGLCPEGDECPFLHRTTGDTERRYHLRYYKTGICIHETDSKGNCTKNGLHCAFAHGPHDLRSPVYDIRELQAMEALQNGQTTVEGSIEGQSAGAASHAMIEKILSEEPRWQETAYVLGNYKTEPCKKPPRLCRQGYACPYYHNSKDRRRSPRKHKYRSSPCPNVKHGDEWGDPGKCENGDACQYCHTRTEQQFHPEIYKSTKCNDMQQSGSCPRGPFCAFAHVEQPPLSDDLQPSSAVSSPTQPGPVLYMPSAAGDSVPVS
Notes: RNA with constant flanks, vertebrate orthologous sites, ends assumed
Constant ends, left off below: GGGAGUUCUACAGUCCGACGAUC … CAACAGAGGAUUGAGCAUCA
For `AGUAUCCCAGUUGUACCGUGUUGGGUUGGCAUUGUACAGAAAUCAACAGCCAUAUUGGUCUAGAAACAUUAAACAUAAUUUUUUCCAUUUGUACAGGGGUAACGCACUGUAUUAAAUAUG`, the bound/input enrichment was 1.37 ratio.
The bound/input enrichment of `UCAGAUGGUGGUUGUACAUUAUUCAUUUAGAAAAUAUAAAAAUUCAUUUUGUUUUGAAGCUAGGCAUUAAACUGGAAUAGCAGUUUUACCCCUGAGAAUGGGGCCCUUCCCUUGACAUUC` is reported as 3.4 ratio.
`GACCUCCCGAACGUCUGGCUUUCAAGCCGCGGCUGUUUUAGAUACUGGUUUUGUUUCCUUGACGAUGCUUCCCCGUCUGCCGCCUCCUCUUCCCCUGUUCCCGAGGUUUGACUCGUGGAU` gave a bound/input enrichment of 0.521 ratio.
For `CCGGGUCCCCCCGCACCCACCCCAGGCCCAGGGACCAGGUGUUGCAUUGAGGACCUGCCUUUCAAACACUUUUUUAAAUUGUCCAGCGAGAGAUGUGACCAAAACAGCAUCUCAAAGUGG`, the bound/input enrichment was 0.56 ratio.
With `UACACCAGAUACUUUUAACUGUUUUAAAGAUACAAAUAAGCUUUGCUUUUUGCAUUAAAAUAGAAUACUUUUAUAUUAUAAGUGCUUCAAAUGUGUGGAAUGUUAGUUUGCUCUUACAAU` the bound/input enrichment was 0.29 ratio.
The bound/input enrichment of `UAUUCAUUUGAUUAAAAUUAUUUAGAUAAGGAACUAUUACUGUUUAUCUUUGCUUUCAGACAACUUAUCCUAUUUUUUAUCCAUUUUGCAAAAUAGCACUUGUGUGUGGUUUCUUAACAC` is reported as 0.744 ratio.
With `CUACUAUAAACAACUCAGGGCAGUAUUCUCGAUAUCCUUACAGUAACCUAAAUCAGGGAUUAGUUAACAGUACAGGGAUGAAUCAAAAUUUAGGCCUUACGAAUAAUACUCCAAUGAAUC` the bound/input enrichment was 1.22 ratio.
The bound/input enrichment of `GCAAUGAAAAAGCAGCCCUUCUCCCAGCCCCCUUUUCACUAGGAGAUACAAACGUUACCAUAGAAGAGCAAUUAAAUUCAAUAAAUUUAUCUUUUCAGGAUGAUCCAGAUUCCAGUACCA` is reported as 1.84 ratio.
`AUCCUUUCACACUGUCCCCAGCCAGGGUCAAGGACCAGACGUUUCACUGAGGACCUGCAUUUCAAACAGUUUUUAAAUUGUACAGGAAGAGAUGCGACAAAACAGCAUCUCAGCGUCGAG` has a bound/input enrichment of 0.336 ratio.
`UUCACUACCUGACCAGAGUCGAAGUGACAGAAUUUGAAGACAUAAAAUCAGGAUACAGAAUAGAUUUUGAAGCGCCUUUUGUAACUGAGUUCGGUUCUGCGGGUAGAGGUAGGUGCCUGU` has a bound/input enrichment of 0.183 ratio.
With `UAUCUUUAGGAUGAAGCUCUUGCACCAGGUGUCACGGGUCUGGAAAACAGACGGCCUGACGAGUUGUUCUUACAAAUUACUGUCUGUGGAACACAAUCCUUUAUAUGUCAACAUCACAGU` the bound/input enrichment was 0.214 ratio.

Sample 5 — method: RNA Bind-n-Seq; molecule type: RNA; matrix: in vitro; concentration: 200 nM; notes: whole 134-nt RNA, ends assumed; together with: 150 mM KCl; baseline: input library; reading: higher = stronger binding
Target: Ras GTPase-activating protein-binding protein 1, full length (G3BP1, Homo sapiens, UniProt Q13283)
Chain of UniProt Q13283 (whole entry, looked up): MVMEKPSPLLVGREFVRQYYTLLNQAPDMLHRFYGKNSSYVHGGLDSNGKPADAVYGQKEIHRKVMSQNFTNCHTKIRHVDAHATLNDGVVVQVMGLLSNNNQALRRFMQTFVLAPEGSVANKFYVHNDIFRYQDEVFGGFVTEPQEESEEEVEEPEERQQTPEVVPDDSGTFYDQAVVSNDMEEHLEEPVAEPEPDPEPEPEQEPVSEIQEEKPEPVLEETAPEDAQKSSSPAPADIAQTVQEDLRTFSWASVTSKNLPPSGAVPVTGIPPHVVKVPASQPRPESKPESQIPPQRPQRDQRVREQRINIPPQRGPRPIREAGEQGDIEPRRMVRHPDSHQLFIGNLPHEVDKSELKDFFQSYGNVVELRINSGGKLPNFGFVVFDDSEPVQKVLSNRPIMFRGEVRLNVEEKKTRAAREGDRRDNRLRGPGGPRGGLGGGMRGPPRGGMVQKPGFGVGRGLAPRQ
Constant ends, left off below: GGGAGUUCUACAGUCCGACGAUC … UGGAAUUCUCGGGUGUCAAGG
The log2 enrichment of `CACAGACAACACGCACCCACACAGACACAGAGGGAAGGGGUUGGGAUGGGGACAGGGUGCACAGCAGGGCGGGGUAGGACCCCAGCGCCU` is reported as 1.9.
`UGUGCUACACAUCGUAUGUACCGAAUCGGAAAAAAAGGGGAAAAAAAGGGGAAAAAAAGGGGAAAGUAUUAUGUUACGCCGUUCGGAUCU` gave a log2 enrichment of -0.52.
With `ACCAUGCAGGUGGGCAUCUUUGGGAAGUGGGGCAAGGGGGGGAUAGGCAGGGGGGUAACACUUUGGGAACAGGUGGUCCCAGGUCGUUUC` the log2 enrichment was 0.873.
The log2 enrichment of `CACAGACAACACGCACCCACACAGACACAGAGGGAAGGCGUUGGGAUGGGGACAGGGUGCACAGCAGGGCGGGGUAGGACCCCAGCCCCU` is reported as 1.65.
`AAGUCCUGUGCUACACAUCGUAUGUACCGAAUCGGUUUGGAAAAAGGAAAAAAAGGAAAGUAUUAUGUUACGCCGUUCGGAUCUGCACUU` gave a log2 enrichment of -0.971.
The log2 enrichment of `CCUCAAGUCCUGUGCUACACAUCGUAUGUACCGAAUCGGGGUGGUGGGUGGGAAAGUAUUAUGUUACGCCGUUCGGAUCUGCACUUCCAG` is reported as 1.14.
With `AGUCCUGUGCUACACAUCGUAUGUACCGAAUCGGGGUUUUGGUUUUGGGUUUUGGGGAAAGUAUUAUGUUACGCCGUUCGGAUCUGCACU` the log2 enrichment was -0.396.
For `GUCCUGUGCUACACAUCGUAUGUACCGAAUCAAAUUUUUUUAAACCCAAAUUUUUAAAAAAGUAUUAUGUUACGCCGUUCGGAUCUGCAC`, the log2 enrichment was -0.832.
For `AAGUCCUGUGCUACACAUCGUAUGUACCGAAUCGGGAAAAAGGGUUUUUGGGUGGGAAAGUAUUAUGUUACGCCGUUCGGAUCUGCACUU`, the log2 enrichment was 0.276.
`ACCAUGCAGGUGGGCAUCUUUGGGAAGUGGGGCAAGGGGGGGAUAGGGAGGGGGGUAACACUUUGGUAACAGGUGGUCCCAGGUCGUUUC` has a log2 enrichment of 0.893.
For `CAAGUCCUGUGCUACACAUCGUAUGUACCGAAUCGGUGGAAAAAGGUUUUUUUGGAAAGUAUUAUGUUACGCCGUUCGGAUCUGCACUUC`, the log2 enrichment was -0.972.
`CUCAAGUCCUGUGCUACACAUCGUAUGUACCGAAUCGGUUGGUUGGGGUUGGGAAAGUAUUAUGUUACGCCGUUCGGAUCUGCACUUCCA` gave a log2 enrichment of -0.000208.
`UGGGAGGUGGAUUUUGUUUAUUUUUUUAGCUCAUUCCCAGGGGUGGGAAUUUUUUUUUAAUAUGUGUCAUGAAUAAAGUUGUUUUUGAAA` gave a log2 enrichment of -0.201.
For `AAGUCCUGUGCUACACAUCGUAUGUACCGAAUCGGGUUUUUGGGAAAAAGGGUGGGAAAGUAUUAUGUUACGCCGUUCGGAUCUGCACUU`, the log2 enrichment was 0.153.

For quick reference, copied from above (sample 1):
`A3R`: “normalised enrichment score” 0.546.
`D11Y`: “normalised enrichment score” 0.676.
For `D11G`, “normalised enrichment score” read 1.71.
For `M13H`, “normalised enrichment score” read 2.13.
`D8K` — result for “normalised enrichment score”: 1.29.
For `D8Q`, “normalised enrichment score” read 1.07.
